Results gathered from unrelated publications.
Parts stem from different laboratories: compare values within a part only.
Chain of UniProt P10721 (whole entry, unmodified, looked up): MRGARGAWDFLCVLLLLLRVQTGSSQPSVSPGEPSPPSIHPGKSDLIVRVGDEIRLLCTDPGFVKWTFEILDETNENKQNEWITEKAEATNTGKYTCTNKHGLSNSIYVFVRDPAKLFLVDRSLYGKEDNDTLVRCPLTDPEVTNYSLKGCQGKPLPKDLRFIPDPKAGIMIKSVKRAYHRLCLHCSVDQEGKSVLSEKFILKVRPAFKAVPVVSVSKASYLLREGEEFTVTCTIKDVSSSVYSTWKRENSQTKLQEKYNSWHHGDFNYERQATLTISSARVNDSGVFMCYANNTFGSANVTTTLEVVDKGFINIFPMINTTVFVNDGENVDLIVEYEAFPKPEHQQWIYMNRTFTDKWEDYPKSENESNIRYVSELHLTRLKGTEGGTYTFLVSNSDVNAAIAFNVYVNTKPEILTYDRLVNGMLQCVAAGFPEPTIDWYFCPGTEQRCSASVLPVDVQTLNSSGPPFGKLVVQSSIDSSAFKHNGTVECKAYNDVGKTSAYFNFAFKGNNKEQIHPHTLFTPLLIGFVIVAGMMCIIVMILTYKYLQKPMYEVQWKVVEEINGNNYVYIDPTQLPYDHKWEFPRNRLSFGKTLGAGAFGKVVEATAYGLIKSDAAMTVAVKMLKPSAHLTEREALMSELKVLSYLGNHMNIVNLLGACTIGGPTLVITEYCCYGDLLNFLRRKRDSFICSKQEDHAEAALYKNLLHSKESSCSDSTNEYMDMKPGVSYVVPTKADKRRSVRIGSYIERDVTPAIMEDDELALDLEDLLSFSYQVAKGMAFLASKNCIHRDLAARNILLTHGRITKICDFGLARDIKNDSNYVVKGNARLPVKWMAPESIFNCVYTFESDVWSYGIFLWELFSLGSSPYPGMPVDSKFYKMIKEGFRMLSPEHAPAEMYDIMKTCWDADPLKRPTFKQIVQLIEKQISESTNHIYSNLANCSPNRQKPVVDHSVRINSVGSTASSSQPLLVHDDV
Chain of UniProt Q9UM73 (whole entry, unmodified, looked up): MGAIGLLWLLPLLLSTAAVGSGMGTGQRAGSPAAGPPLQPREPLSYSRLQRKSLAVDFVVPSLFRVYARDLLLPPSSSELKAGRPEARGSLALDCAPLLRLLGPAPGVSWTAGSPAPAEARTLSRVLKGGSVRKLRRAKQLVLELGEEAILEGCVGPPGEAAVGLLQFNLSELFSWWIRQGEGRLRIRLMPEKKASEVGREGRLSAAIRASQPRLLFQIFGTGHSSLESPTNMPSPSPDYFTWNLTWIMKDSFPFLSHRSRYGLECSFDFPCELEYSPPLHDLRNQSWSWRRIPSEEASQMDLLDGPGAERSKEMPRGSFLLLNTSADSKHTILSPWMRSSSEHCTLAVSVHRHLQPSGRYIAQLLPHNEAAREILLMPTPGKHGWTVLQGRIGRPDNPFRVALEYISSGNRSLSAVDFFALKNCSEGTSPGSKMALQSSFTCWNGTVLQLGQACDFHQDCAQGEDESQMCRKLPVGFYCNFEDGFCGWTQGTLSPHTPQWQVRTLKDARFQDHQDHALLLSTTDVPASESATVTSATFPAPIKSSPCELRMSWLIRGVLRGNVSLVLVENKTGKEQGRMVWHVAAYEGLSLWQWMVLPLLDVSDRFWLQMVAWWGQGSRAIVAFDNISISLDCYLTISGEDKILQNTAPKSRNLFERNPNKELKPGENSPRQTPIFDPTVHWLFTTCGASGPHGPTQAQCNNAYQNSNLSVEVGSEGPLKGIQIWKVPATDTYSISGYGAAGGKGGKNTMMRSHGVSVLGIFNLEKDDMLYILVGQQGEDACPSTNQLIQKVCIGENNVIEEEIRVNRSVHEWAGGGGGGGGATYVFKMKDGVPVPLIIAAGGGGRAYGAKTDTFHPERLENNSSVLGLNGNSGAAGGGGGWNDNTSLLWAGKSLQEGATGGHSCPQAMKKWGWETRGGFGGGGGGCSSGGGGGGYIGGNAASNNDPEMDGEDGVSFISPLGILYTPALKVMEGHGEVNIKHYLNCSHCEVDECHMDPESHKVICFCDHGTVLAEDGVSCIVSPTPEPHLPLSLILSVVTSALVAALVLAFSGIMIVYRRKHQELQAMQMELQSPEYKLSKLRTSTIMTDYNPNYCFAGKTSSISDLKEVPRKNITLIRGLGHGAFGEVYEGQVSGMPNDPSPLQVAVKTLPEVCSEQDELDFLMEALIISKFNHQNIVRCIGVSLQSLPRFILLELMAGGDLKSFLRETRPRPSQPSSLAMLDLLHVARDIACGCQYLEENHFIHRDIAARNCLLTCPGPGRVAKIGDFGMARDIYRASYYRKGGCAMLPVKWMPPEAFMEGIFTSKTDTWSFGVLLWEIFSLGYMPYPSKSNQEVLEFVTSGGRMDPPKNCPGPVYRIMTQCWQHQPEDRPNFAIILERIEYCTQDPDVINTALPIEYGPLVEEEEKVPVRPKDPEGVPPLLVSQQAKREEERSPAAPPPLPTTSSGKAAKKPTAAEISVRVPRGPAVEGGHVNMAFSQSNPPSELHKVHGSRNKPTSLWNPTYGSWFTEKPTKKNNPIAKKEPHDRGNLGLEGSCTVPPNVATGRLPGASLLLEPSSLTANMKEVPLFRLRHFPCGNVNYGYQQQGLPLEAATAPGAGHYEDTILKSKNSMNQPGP
Chain of UniProt Q13523 (whole entry, looked up): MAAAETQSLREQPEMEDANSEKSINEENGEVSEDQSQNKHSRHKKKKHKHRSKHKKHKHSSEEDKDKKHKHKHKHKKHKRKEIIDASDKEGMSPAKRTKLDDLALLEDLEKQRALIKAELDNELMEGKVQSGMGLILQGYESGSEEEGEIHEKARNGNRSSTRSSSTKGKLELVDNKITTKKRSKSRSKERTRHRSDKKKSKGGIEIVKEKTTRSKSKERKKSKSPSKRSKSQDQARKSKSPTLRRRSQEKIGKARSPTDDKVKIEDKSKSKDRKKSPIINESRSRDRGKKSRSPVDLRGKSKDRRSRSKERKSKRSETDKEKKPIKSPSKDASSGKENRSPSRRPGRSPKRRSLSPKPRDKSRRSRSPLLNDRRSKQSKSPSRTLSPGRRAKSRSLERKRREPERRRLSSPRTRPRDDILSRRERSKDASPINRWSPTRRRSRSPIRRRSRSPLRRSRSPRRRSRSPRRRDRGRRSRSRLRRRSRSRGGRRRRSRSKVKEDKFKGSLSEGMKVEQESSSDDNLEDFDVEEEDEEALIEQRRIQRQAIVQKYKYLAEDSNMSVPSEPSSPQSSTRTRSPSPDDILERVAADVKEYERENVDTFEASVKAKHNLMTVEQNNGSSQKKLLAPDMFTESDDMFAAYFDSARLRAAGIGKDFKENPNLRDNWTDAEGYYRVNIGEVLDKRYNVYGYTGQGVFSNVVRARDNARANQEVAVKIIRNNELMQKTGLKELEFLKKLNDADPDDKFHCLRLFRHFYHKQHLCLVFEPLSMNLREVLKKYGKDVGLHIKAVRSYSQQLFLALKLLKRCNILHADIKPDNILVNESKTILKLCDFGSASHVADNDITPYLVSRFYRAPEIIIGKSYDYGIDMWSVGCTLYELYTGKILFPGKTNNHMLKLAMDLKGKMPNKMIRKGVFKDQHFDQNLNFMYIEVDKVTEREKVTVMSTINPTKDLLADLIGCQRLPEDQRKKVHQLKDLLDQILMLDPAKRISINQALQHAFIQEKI
Chain of UniProt Q16816 (whole entry, looked up): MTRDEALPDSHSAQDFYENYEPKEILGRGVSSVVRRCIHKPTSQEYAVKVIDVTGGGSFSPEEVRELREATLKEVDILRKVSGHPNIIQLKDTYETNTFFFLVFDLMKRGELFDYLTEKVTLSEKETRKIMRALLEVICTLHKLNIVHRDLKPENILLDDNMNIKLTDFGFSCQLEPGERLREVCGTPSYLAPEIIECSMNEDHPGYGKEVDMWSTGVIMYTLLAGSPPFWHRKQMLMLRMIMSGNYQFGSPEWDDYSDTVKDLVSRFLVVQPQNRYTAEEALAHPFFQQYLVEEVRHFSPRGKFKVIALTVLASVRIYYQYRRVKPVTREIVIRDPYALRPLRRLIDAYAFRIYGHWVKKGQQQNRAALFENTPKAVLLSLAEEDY

Series 1 — effect on: cell-free assay; technique: competition with immobilised ligand; tested at: 1 µM
SMILES: CCS(=O)(=O)c1cc2cc(C[C@@](O)(CC(C)(C)c3ccc(F)cc3C(N)=O)C(F)(F)F)[nH]c2cn1
For Serine/threonine-protein kinase 35 (STK35, Homo sapiens, UniProt Q8TDR2): remaining binding read 100%.
ALK tyrosine kinase receptor (ALK, Homo sapiens, UniProt Q9UM73) — remaining binding: 100%.
The remaining binding was 55% (Bone morphogenetic protein receptor type-1B (BMPR1B, Homo sapiens, UniProt O00238)).
It gave 90% for remaining binding (Cyclin-dependent kinase-like 3 (CDKL3, Homo sapiens, UniProt Q8IVW4)).
It gave 73% for remaining binding (Mast/stem cell growth factor receptor Kit (KIT, Homo sapiens, UniProt P10721, A829P)).
The remaining binding was 80% (Serine/threonine-protein kinase PRP4 homolog (PRPF4B, Homo sapiens, UniProt Q13523)).
For Interferon-induced, double-stranded RNA-activated protein kinase (EIF2AK2, Homo sapiens, UniProt P19525): remaining binding read 61%.
The remaining binding was 100% (ALK tyrosine kinase receptor (ALK, Homo sapiens, UniProt Q9UM73, C1156Y)).
It gave 98% for remaining binding (Proto-oncogene tyrosine-protein kinase receptor Ret (RET, Homo sapiens, UniProt P07949, M918T)).
For Dual specificity mitogen-activated protein kinase kinase 7 (MAP2K7, Homo sapiens, UniProt O14733): remaining binding read 99%.
Serine/threonine-protein kinase mTOR (MTOR, Homo sapiens, UniProt P42345) — remaining binding: 100%.
It gave 76% for remaining binding (Serine/threonine-protein kinase 17B (STK17B, Homo sapiens, UniProt O94768)).
The remaining binding was 92% (Tyrosine-protein kinase SYK (SYK, Homo sapiens, UniProt P43405)).
The remaining binding was 90% (Epidermal growth factor receptor (EGFR, Homo sapiens, UniProt P00533, L858R)).
Tyrosine-protein kinase FRK (FRK, Homo sapiens, UniProt P42685) — remaining binding: 100%.
For Serine/threonine-protein kinase D3 (PRKD3, Homo sapiens, UniProt O94806): remaining binding read 100%.
The remaining binding was 94% (Serine/threonine-protein kinase SBK1 (SBK1, Homo sapiens, UniProt Q52WX2)).

Series 2 — effect on: binding; tested at: 1 µM
SMILES: CN1CCN(C(=O)c2ccc(NC(=O)Nc3ccc(N(C)c4ccnc(Nc5ccc(CS(C)(=O)=O)cc5)n4)cc3)cc2)CC1
It gave 76% for remaining binding (Ephrin type-B receptor 2 (EPHB2, Homo sapiens, UniProt P29323); competition with immobilised ligand).
It gave 94% for remaining binding (Activin receptor type-2B (ACVR2B, Homo sapiens, UniProt Q13705); competition with immobilised ligand).
For Mast/stem cell growth factor receptor Kit (KIT, Homo sapiens, UniProt P10721, V559D): remaining binding read 0%.
Mitogen-activated protein kinase kinase kinase 14 (MAP3K14, Homo sapiens, UniProt Q99558) — remaining binding: 100%.
The remaining binding was 25% (Mitogen-activated protein kinase kinase kinase kinase 3 (MAP4K3, Homo sapiens, UniProt Q8IVH8); competition with immobilised ligand).
Serine/threonine-protein kinase RIO2 (RIOK2, Homo sapiens, UniProt Q9BVS4) — remaining binding: 21%.
For Serine/threonine-protein kinase MRCK alpha (CDC42BPA, Homo sapiens, UniProt Q5VT25); competition with immobilised ligand: remaining binding read 89%.
For Serine/threonine-protein kinase PAK 1 (PAK1, Homo sapiens, UniProt Q13153): remaining binding read 92%.
It gave 100% for remaining binding (Phosphorylase b kinase gamma catalytic chain, skeletal muscle/heart isoform (PHKG1, Homo sapiens, UniProt Q16816)).
The remaining binding was 98% (Myosin light chain kinase family member 4 (MYLK4, Homo sapiens, UniProt Q86YV6)).
It gave 92% for remaining binding (MAP/microtubule affinity-regulating kinase 4 (MARK4, Homo sapiens, UniProt Q96L34)).
For Protein-tyrosine kinase 6 (PTK6, Homo sapiens, UniProt Q13882); competition with immobilised ligand: remaining binding read 95%.
The remaining binding was 100% (Serine/threonine-protein kinase 32B (STK32B, Homo sapiens, UniProt Q9NY57)).

Series 3 — organism: Sarcocystis neurona; effect on: parasite growth; tested at: 10 µM; time: 96 h; setting: secondary screen
With CCOc1cc(CC(=O)N[C@@H](CC(C)C)c2ccccc2N2CCCCC2)ccc1C(=O)O the inhibition was -43.5%.
C=CCc1ccc(O)c(-c2ccc(O)c(CC=C)c2)c1 gave an inhibition of -39.3%.
CC=CC(=O)N(CC)c1ccccc1C (mixture of isomers) has an inhibition of -25.2%.
With OCCN1C[C@H](O)[C@@H](O)[C@H](O)[C@H]1CO the inhibition was 0.5%.
Clc1ccc(COC(Cn2ccnc2)c2ccc(Cl)cc2Cl)cc1 (centres unmarked) gave an inhibition of 6.8%.
CCCCC(=O)O[C@]1(C(=O)CO)CC[C@H]2[C@@H]3CCC4=CC(=O)CC[C@]4(C)[C@H]3[C@@H](O)C[C@@]21C has an inhibition of -17.1%.
CCN1CCN(C(=O)N[C@@H](C(=O)N[C@@H]2C(=O)N3[C@@H]2SC(C)(C)[C@@H]3C(=O)O)c2ccccc2)C(=O)C1=O gave an inhibition of -34.6%.
With CC1(C)S[C@@H]2[C@H](NC(=O)COc3ccccc3)C(=O)N2[C@H]1C(=O)O the inhibition was -10.8%.
Cc1ccc(Cl)c(Nc2ccccc2C(=O)O)c1Cl gave an inhibition of -29%.

Series 4 — effect on: enzyme activity; action: inhibitor; tested at: 0.5 µM; relative to: control
Target: Activated CDC42 kinase 1 (TNK2, Homo sapiens, UniProt Q07912)
Chain of UniProt Q07912 (whole entry, looked up): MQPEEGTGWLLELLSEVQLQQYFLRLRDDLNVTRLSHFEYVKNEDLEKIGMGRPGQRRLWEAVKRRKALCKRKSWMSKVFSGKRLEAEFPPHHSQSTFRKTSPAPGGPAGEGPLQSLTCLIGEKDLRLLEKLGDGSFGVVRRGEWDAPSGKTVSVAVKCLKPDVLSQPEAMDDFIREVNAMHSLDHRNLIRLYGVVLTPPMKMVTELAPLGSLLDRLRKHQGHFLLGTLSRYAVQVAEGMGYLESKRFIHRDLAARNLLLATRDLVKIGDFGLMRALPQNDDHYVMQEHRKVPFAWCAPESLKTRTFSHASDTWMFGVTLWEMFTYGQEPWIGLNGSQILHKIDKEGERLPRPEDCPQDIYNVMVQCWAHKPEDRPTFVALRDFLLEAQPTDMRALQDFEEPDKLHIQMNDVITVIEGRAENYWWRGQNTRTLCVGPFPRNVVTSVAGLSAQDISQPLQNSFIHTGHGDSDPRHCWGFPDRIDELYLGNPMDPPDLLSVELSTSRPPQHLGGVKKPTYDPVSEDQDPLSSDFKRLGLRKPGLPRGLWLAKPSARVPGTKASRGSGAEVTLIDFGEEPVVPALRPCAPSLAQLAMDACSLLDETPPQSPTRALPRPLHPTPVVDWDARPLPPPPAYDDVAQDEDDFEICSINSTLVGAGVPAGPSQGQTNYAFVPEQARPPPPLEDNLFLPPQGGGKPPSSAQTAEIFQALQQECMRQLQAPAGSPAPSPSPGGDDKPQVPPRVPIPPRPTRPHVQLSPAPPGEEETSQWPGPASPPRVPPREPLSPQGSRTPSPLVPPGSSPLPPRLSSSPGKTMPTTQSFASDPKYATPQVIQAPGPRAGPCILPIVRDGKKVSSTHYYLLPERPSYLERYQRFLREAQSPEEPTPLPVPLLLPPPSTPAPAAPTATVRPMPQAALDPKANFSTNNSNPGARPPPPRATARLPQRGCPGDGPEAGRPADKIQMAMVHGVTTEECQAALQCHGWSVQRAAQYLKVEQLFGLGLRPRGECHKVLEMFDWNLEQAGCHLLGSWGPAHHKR
The remaining activity of CO[C@H]1C[C@@H]2CC[C@@H](C)[C@@](O)(O2)C(=O)C(=O)N2CCCC[C@H]2C(=O)O[C@H]([C@H](C)C[C@@H]2CC[C@@H](O)[C@H](OC)C2)CC(=O)[C@H](C)/C=C(\C)[C@@H](O)[C@@H](OC)C(=O)[C@H](C)C[C@H](C)/C=C/C=C/C=C/1C is reported as 98.5%.
O=C(CCCc1ccc(-c2ccccc2F)cc1)Nc1ccc(O)cc1 has a remaining activity of 99.2%.
O=c1c2ccccc2[nH]c(=S)n1CCN1CCC(=C(c2ccc(F)cc2)c2ccc(F)cc2)CC1 gave a remaining activity of 105%.
For COc1cc2ncnc(Nc3ccc(Oc4ccccc4)cc3)c2cc1OC, the remaining activity was 49%.
Oc1ccc(-c2nc(-c3ccncc3)c(-c3ccc(F)cc3)[nH]2)cc1 has a remaining activity of 83.2%.
O=C(Nc1cccc(Nc2cc(Nc3cccc(C(F)(F)F)c3)ncn2)c1)C1CC1 gave a remaining activity of 98.7%.
The remaining activity of O=C1NC(=O)C(c2cn(CCCn3ccnc3)c3ccccc23)=C1Nc1ccccc1 is reported as 65.9%.
CNC(=O)c1cc(Oc2ccc(NC(=O)Nc3ccc(Cl)c(C(F)(F)F)c3)cc2)ccn1 has a remaining activity of 97.6%.
For Cc1ccc(NC(=O)c2ccc(CN3CCN(C)CC3)cc2)cc1Nc1nc(-c2cccnc2)cs1, the remaining activity was 95.7%.
COc1ccc(C(=O)Nc2sc3c(c2C(N)=O)CCCC3)cc1OC has a remaining activity of 93.4%.
For COc1cc2nccc(Oc3ccc(NC(=S)NC(=O)c4ccccc4C)cc3)c2cc1OC, the remaining activity was 26.9%.
For COc1cc2ncnc(Nc3ccc(F)c(Cl)c3)c2cc1OCCCN1CCOCC1, the remaining activity was 72.8%.
For NCCNc1ncc(C(N)=O)c(Nc2cccc(C(F)(F)F)c2)n1, the remaining activity was 74.5%.
For Cc1nc(-c2ccccc2)c(-c2ccncc2)o1, the remaining activity was 97.7%.
The remaining activity of Cc1ccc(Nc2nccc(N(C)c3ccc4c(C)n(C)nc4c3)n2)cc1S(N)(=O)=O is reported as 90.2%.
Nc1ccc2ncnc(NCCc3ccc(Oc4ccccc4)cc3)c2c1 has a remaining activity of 102%.
The remaining activity of Cn1sc(=O)n(Cc2ccccc2)c1=O is reported as 101%.
The remaining activity of OCC(O)CCON=C1C(c2c(O)[nH]c3ccccc23)=Nc2ccccc21 (centres unmarked) is reported as 4.93%.
O=C(O)c1ccc2c3c1cccc3c(=O)n1c3ccccc3nc21 gave a remaining activity of 101%.
The remaining activity of O=S(=O)(c1cccc2cnccc12)N1CCCNCC1 is reported as 89.4%.

Repeated from above (series 1):
The remaining binding was 100% (ALK tyrosine kinase receptor (ALK, Homo sapiens, UniProt Q9UM73, C1156Y)).
It gave 98% for remaining binding (Proto-oncogene tyrosine-protein kinase receptor Ret (RET, Homo sapiens, UniProt P07949, M918T)).
For Dual specificity mitogen-activated protein kinase kinase 7 (MAP2K7, Homo sapiens, UniProt O14733): remaining binding read 99%.
Serine/threonine-protein kinase mTOR (MTOR, Homo sapiens, UniProt P42345) — remaining binding: 100%.
